# Assay results of several laboratories.
# Organism: Acinetobacter baumannii
Compound,test,test system,conditions,MIC
CC[C@H]1OC(=O)[C@H](C)[C@@H](OC(=O)Cc2c(F)cccc2F)[C@H](C)[C@@H](O[C@@H]2O[C@H](C)C[C@H](N(C)C)[C@H]2O)[C@](C)(OC)C[C@@H](C)C(=O)[C@H](C)[C@@H](O)[C@]1(C)O,microbial growth,ATCC19606,,> 32 µg/mL
CC1(C)C(NC(=O)C(=NOCC(=O)N2CC3CCCC3C2C(=O)O)c2csc(N)n2)C(=O)N1OS(=O)(=O)O (stereo not drawn),agar dilution,ATCC 19606,,> 64 µg/mL
CCCCCCCC(=O)N[C@@H](CCN)C(=O)N[C@H](C(=O)N[C@@H](CCN)C(=O)N[C@H]1CCNC(=O)[C@H]([C@@H](C)O)NC(=O)[C@H](CCN)NC(=O)[C@H](CCN)NC(=O)[C@H](CC(C)C)NC(=O)[C@@H](Cc2ccccc2)NC(=O)[C@H](C)NC1=O)[C@@H](C)O,broth microdilution,ATCC 17978,"20 h, 37 °C",> 512 µg/mL
COc1nc(C(=O)Nc2ccc(C(=O)O)c(O)c2OC)ccc1NC(=O)c1ccc(NC(=O)[C@H](Cc2c[nH]nn2)NC(=O)c2ccc(NC(=O)/C(C)=C/c3ccc(O)cc3)cc2)cc1,broth microdilution,ciprofloxacin-resistant,,4 µg/mL
CC1(C)[C@H](NC(=O)/C(=N\OCCN)c2csc(N)n2)C(=O)N1OS(=O)(=O)O,agar dilution,16-16,,> 64 µg/mL
CCCCCCCC(=O)N[C@@H](CCN)C(=O)N[C@H](C(=O)N[C@@H](CN)C(=O)N[C@H]1CCNC(=O)[C@H]([C@@H](C)O)NC(=O)[C@H](CCN)NC(=O)[C@H](CN)NC(=O)[C@H]([C@@H](C)O)NC(=O)[C@@H](CC(C)C)NC(=O)[C@H](CCN)NC1=O)[C@@H](C)O,,"ATCC 19606, CAMHB","20 h, 37 °C",4 µg/mL
CC[C@H]1OC(=O)[C@H](C)[C@@H](OC(=O)Cc2ccc(C(F)(F)F)cc2)[C@H](C)[C@@H](O[C@@H]2O[C@H](C)C[C@H](N(C)C)[C@H]2O)[C@](C)(OC)C[C@@H](C)C(=O)[C@H](C)[C@@H](O)[C@]1(C)O,microbial growth,ATCC19606,,> 32 µg/mL
CN[C@H](CC(C)C)C(=O)N[C@H]1C(=O)N[C@@H](CC(N)=O)C(=O)N[C@H]2C(=O)N[C@H]3C(=O)N[C@H](C(=O)N[C@H](C(=O)O)c4cc(O)cc(O)c4-c4cc3ccc4O)[C@H](O)c3ccc(c(Cl)c3)Oc3cc2cc(c3O[C@@H]2O[C@H](CO)[C@@H](O)[C@H](O)[C@H]2O[C@H]2C[C@](C)(NCc3ccc(OCc4cn(CC(=O)N[C@H](C(=O)N[C@@H](CCN)C(=O)N[C@H]5CCNC(=O)[C@H]([C@@H](C)O)NC(=O)[C@H](CCN)NC(=O)[C@H](CCN)NC(=O)[C@H](CC(C)C)NC(=O)[C@@H](CC(C)C)NC(=O)[C@H](CCN)NC5=O)[C@@H](C)O)nn4)c(OC)c3)[C@H](O)[C@H](C)O2)Oc2ccc(cc2Cl)[C@H]1O,broth microdilution,"BAA-747, cation-adjusted Mueller-Hinton broth","18 to 20 h, 37 °C, 0.002% polysorbate 80",32 µg/mL
CCCCCCCC(=O)N[C@@H](CCN)C(=O)N[C@H](C(=O)N[C@@H](CN)C(=O)N[C@H]1CCNC(=O)[C@H]([C@@H](C)O)NC(=O)[C@H](CN)NC(=O)[C@H](CCN)NC(=O)[C@H]([C@@H](C)O)NC(=O)[C@@H](CC(C)C)NC(=O)[C@H](CCN)NC1=O)[C@@H](C)O,,"ATCC 17978, CAMHB","20 h, 37 °C",0.5 µg/mL
CCCCCCCCCC[N+](C)(C)CCCCCCOc1cc(OCCCCCC[N+](C)(C)CCCCCCCCCC)cc(OCCCCCC[N+](C)(C)CCCCCCCCCC)c1.[Br-].[Br-].[Br-],,ATCC 17978,,1 µM
CCCCCCCC(=O)N[C@@H](CCN)C(=O)N[C@H](C(=O)N[C@@H](CCN)C(=O)N[C@H]1CCNC(=O)[C@H]([C@@H](C)O)NC(=O)[C@H](CCN)NC(=O)[C@H](CCN)NC(=O)[C@H]([C@@H](C)O)NC(=O)[C@@H](CC(C)C)NC(=O)[C@H](CCN)NC1=O)[C@@H](C)O,,"ATCC 19606, CAMHB","20 h, 37 °C",4 µg/mL
C=CCO/N=C(\C(=O)N[C@@H]1C(=O)N(OS(=O)(=O)O)C1(C)C)c1nsc(N)n1,agar dilution,16-16,,> 64 µg/mL
COc1ccc(O)c(/C=N/[C@@H]2CCCC[C@@H]2/N=C/c2c(O)ccc3ccc(OC)cc23)c1,"bacterial growth, broth microdilution",carbapenem-resistant clinical isolate,,> 40 µM
CC[C@H]1OC(=O)[C@H](C)[C@@H](OC(=O)Cc2ccc3c(c2)OCO3)[C@H](C)[C@@H](O[C@@H]2O[C@H](C)C[C@H](N(C)C)[C@H]2O)[C@](C)(OC)C[C@@H](C)C(=O)[C@H](C)[C@@H](O)[C@]1(C)O,microbial growth,ATCC19606,,32 µg/mL
CCCCCCCC(=O)N[C@@H](CCN)C(=O)N[C@H](C(=O)N[C@@H](CCN)C(=O)N[C@H]1CCNC(=O)[C@H]([C@@H](C)O)NC(=O)[C@H](C)NC(=O)[C@H](CCN)NC(=O)[C@H](CC(C)C)NC(=O)[C@@H](Cc2ccccc2)NC(=O)[C@H](CCN)NC1=O)[C@@H](C)O,CLSI broth microdilution,"5075, CAMHB","20 h, 37 °C",> 512 µg/mL
COc1cc(C(=O)Nc2ccc(C(=O)O)c(O)c2)ccc1NC(=O)c1ccc(NC(=O)[C@H](Cc2c[nH]nn2)NC(=O)c2ccc(NC(=O)/C(C)=C/c3ccc(O)cc3)cc2)cc1,broth microdilution,ciprofloxacin-resistant,,16 µg/mL
CC(=O)NC[C@H]1CN(c2ccc(N3CCN(C(=O)CN)CC3)c(F)c2)C(=O)O1,"microbial growth, broth dilution",ATCC19606,,> 128 µM
CCCCCCCCCCn1cc[n+](CCCCCCCCOc2cc(OCCCCCCCC[n+]3ccn(CCCCCCCCCC)c3)cc(OCCCCCCCC[n+]3ccn(CCCCCCCCCC)c3)c2)c1.[Br-].[Br-].[Br-],,ATCC 17978,,16 µM
CC1(C)[C@H](NC(=O)/C(=N\OCc2c(Cl)cccc2Cl)c2csc(N)n2)C(=O)N1OS(=O)(=O)O,agar dilution,16-16,,> 64 µg/mL
CCCCCCCCCCn1cc[n+](CCCCOc2cc(OCCCC[n+]3ccn(CCCCCCCCCC)c3)cc(OCCCC[n+]3ccn(CCCCCCCCCC)c3)c2)c1.[Br-].[Br-].[Br-],,ATCC 17978,,1 µM
CC1(C)[C@H](NC(=O)/C(=N\OCc2c(Cl)cccc2Cl)c2nsc(N)n2)C(=O)N1OS(=O)(=O)O,agar dilution,ATCC 19606,,64 µg/mL
CN[C@H](CC(C)C)C(=O)N[C@H]1C(=O)N[C@@H](CC(N)=O)C(=O)N[C@H]2C(=O)N[C@H]3C(=O)N[C@H](C(=O)N[C@H](C(=O)NCC(N)=O)c4cc(O)cc(O)c4-c4cc3ccc4O)[C@H](O)c3ccc(c(Cl)c3)Oc3cc2cc(c3O[C@@H]2O[C@H](CO)[C@@H](O)[C@H](O)[C@H]2O[C@H]2C[C@](C)(NCc3ccc(OCc4cn(CC(=O)N[C@H](C(=O)N[C@@H](CCN)C(=O)N[C@H]5CCNC(=O)[C@H]([C@@H](C)O)NC(=O)[C@H](CCN)NC(=O)[C@H](CCN)NC(=O)[C@H](CC(C)C)NC(=O)[C@@H](CC(C)C)NC(=O)[C@H](CCN)NC5=O)[C@@H](C)O)nn4)c(OC)c3)[C@H](O)[C@H](C)O2)Oc2ccc(cc2Cl)[C@H]1O,broth microdilution,"BAA-747, cation-adjusted Mueller-Hinton broth","18 to 20 h, 37 °C, 0.002% polysorbate 80",16 µg/mL
CC1(C)[C@H](NC(=O)/C(=N\OCCN)c2nsc(N)n2)C(=O)N1OS(=O)(=O)O,agar dilution,16-16,,32 µg/mL
CCCCCCn1cc[n+](CCCCCCOc2cc(OCCCCCC[n+]3ccn(CCCCCC)c3)cc(OCCCCCC[n+]3ccn(CCCCCC)c3)c2)c1.[Br-].[Br-].[Br-],,ATCC 17978,,8 µM

# Repeated from above:
Compound,test,test system,conditions,MIC
CCCCCCCC(=O)N[C@@H](CCN)C(=O)N[C@H](C(=O)N[C@@H](CN)C(=O)N[C@H]1CCNC(=O)[C@H]([C@@H](C)O)NC(=O)[C@H](CN)NC(=O)[C@H](CCN)NC(=O)[C@H]([C@@H](C)O)NC(=O)[C@@H](CC(C)C)NC(=O)[C@H](CCN)NC1=O)[C@@H](C)O,,"ATCC 17978, CAMHB","20 h, 37 °C",0.5 µg/mL
CCCCCCCCCC[N+](C)(C)CCCCCCOc1cc(OCCCCCC[N+](C)(C)CCCCCCCCCC)cc(OCCCCCC[N+](C)(C)CCCCCCCCCC)c1.[Br-].[Br-].[Br-],,ATCC 17978,,1 µM
